# Results gathered from unrelated publications.
# Organism: Escherichia coli
Compound,test,test system,conditions,MIC
CO[C@@H](C(N)=O)[C@H](NC(=O)c1ccc(NC(=O)[C@@H](N)Cc2ccccc2)cc1)C(=O)Nc1ccc(C(=O)Nc2ccc(C(=O)Nc3ccc(C(=O)O)c(O)c3OC(C)C)c(O)c2OC(C)C)cc1,,pentapeptide repeat protein clone,"16 h, 37 °C",> 2 µg/mL
CSCC[C@H](NC=O)C(=O)N[C@@H](CCCNC(=N)N)C(=O)N[C@H](C(=O)NCC(=O)N[C@@H](CC(N)=O)C(=O)N[C@@H](C)C(=O)N[C@@H](CC(N)=O)C(=O)NCC(=O)N1CCN(c2cc3c(cc2F)c(=O)c(C(=O)O)cn3C2CC2)CC1)[C@@H](C)O,multistep resistance selection,K-12 MG1655,7 days after day 7,6.24 µM
CC(=O)N[C@H](Cc1ccc(C(F)(F)F)cc1)C(=O)N[C@@H](CCN)C(=O)N[C@H](C(=O)N[C@@H](CCN)C(=O)N[C@H]1CCNC(=O)[C@H]([C@@H](C)O)NC(=O)[C@H](CCN)NC(=O)[C@H](CCN)NC(=O)[C@H](CC(C)C)NC(=O)[C@@H](Cc2ccccc2)NC(=O)[C@H](CCN)NC1=O)[C@@H](C)O,broth microdilution,"mcr-1, colistin-resistant",,4 to 8 µg/mL
CC[C@H](C)[C@H](NC(=O)[C@@H](CCCNC(=N)N)NC(=O)[C@H](CCCNC(=N)N)NC(=O)[C@@H](NC(=O)[C@H](Cc1c[nH]c2ccccc12)NC(=O)[C@H](CCCNC(=N)N)NC(=O)[C@@H]1CCCN1C(=O)[C@H](CCCNC(=N)N)NC(=O)[C@@H]1CCCN1C(=O)[C@H](CC(C)C)NC(=O)[C@H](Cc1ccc(O)cc1)NC(=O)[C@@H]1CCCN1C(=O)[C@@H]1CCCN1C(=O)[C@H](CCCCN)NC(=O)[C@H](CC(=O)O)NC(=O)[C@@H](N)C(C)C)C(C)C)C(=O)N[C@@H](Cc1ccc(O)cc1)C(=O)N[C@@H](CC(N)=O)C(=O)N[C@H](CCCNC(=N)N)C(N)=O,broth microdilution,ATCC 25922,"18 h, 37 °C, 25% MHB2",16 µg/mL
CC(C)C[C@@H]1NC(=O)[C@H](CCCCN)NC(=O)CNC(=O)[C@H]2CCCN2C(=O)[C@H](CCCCN)NC(=O)[C@H](CC(C)C)NC(=O)[C@H](CCCCN)NC(=O)C2CCC=CCCCC(NC(=O)[C@H](CCCCN)NC1=O)C(=O)N[C@@H](CCCCN)C(=O)NC(C(N)=O)CCCC=CCCC(N)C(=O)N[C@@H](CCCCN)C(=O)N2 (stereo partly drawn),broth microdilution,"ATCC 25922, Mueller-Hinton broth","18 h, 37 °C",64 µM
CC[C@H](C)[C@H](NC(=O)[C@@H](CCCNC(=N)N)NC(=O)[C@H](CCCNC(=N)N)NC(=O)[C@H](Cc1c[nH]c2ccccc12)NC(=O)[C@H](Cc1c[nH]c2ccccc12)NC(=O)[C@H](CCCNC(=N)N)NC(=O)[C@@H]1CCCN1C(=O)[C@H](CCCNC(=N)N)NC(=O)[C@@H]1CCCN1C(=O)[C@H](CC(C)C)NC(=O)[C@H](Cc1ccc(O)cc1)NC(=O)[C@@H]1CCCN1C(=O)[C@@H]1CCCN1C(=O)[C@H](CCCCN)NC(=O)[C@H](CC(=O)O)NC(=O)[C@@H](N)C(C)C)C(=O)N[C@@H](Cc1ccc(O)cc1)C(=O)N[C@@H](CC(N)=O)C(=O)N[C@H](CCCNC(=N)N)C(N)=O,broth microdilution,MC4100,"18 h, 37 °C, 25% MHB2",8 µg/mL
CN[C@@H]1[C@H](O)[C@H](NC)[C@H]2O[C@]3(O)[C@H](O[C@@H]2[C@H]1O)O[C@H](C)C[C@H]3NC(=O)Cc1ccccc1,"microbial growth, broth dilution",K12,,> 200 µg/mL
CCCCCCCC(=O)N[C@@H](CCN)C(=O)N[C@H](C(=O)N[C@@H](CCN)C(=O)N[C@H]1CCNC(=O)[C@H]([C@@H](C)O)NC(=O)[C@H](CCN)NC(=O)[C@H](CCN)NC(=O)[C@H](CCCc2ccccc2)NC(=O)[C@@H](CC(C)C)NC(=O)[C@H](CCN)NC1=O)[C@@H](C)O,broth microdilution,"mcr-1, colistin-resistant",,1 to 2 µg/mL
CC1(C)[C@H](NC(=O)/C(=N\OCCN)c2csc(N)n2)C(=O)N1OS(=O)(=O)O,agar dilution,"08-85, mcr-1",,16 µg/mL
CC[C@H](C)[C@H](NC(=O)[C@@H](CCCNC(=N)N)NC(=O)[C@H](CCCNC(=N)N)NC(=O)[C@@H]1CCCN1C(=O)[C@@H]1CCCN1C(=O)[C@H](CCCNC(=N)N)NC(=O)[C@@H]1CCCN1C(=O)[C@H](CCCNC(=N)N)NC(=O)[C@@H]1CCCN1C(=O)[C@H](CC(C)C)NC(=O)[C@H](Cc1ccc(O)cc1)NC(=O)[C@@H]1CCCN1C(=O)[C@H](Cc1ccccc1)NC(=O)[C@H](CCCCN)NC(=O)[C@H](CC(=O)O)NC(=O)[C@@H](N)C(C)C)C(=O)N[C@@H](Cc1ccc(O)cc1)C(=O)N[C@@H](CC(N)=O)C(=O)N[C@H](CCCNC(=N)N)C(N)=O,broth microdilution,ATCC 25922,"18 h, 37 °C, 25% MHB2",16 µg/mL
CC(C)C[C@H](NC(=O)[C@H](CCCCN)NC(=O)[C@H](C)NC(=O)[C@H](CC(C)C)NC(=O)[C@H](CCCCN)NC(=O)[C@H](CCC(N)=O)NC(=O)[C@H](CCCCN)NC(=O)[C@H](CC(C)C)NC(=O)[C@H](CCCCN)NC(=O)[C@H](CCC(N)=O)NC(=O)[C@H](CC(C)C)NC(=O)[C@H](CCCCN)NC(=O)[C@H](C)NC(=O)[C@H](CCCCN)NC(=O)[C@H](CC(C)C)NC(=O)[C@H](CCCCN)NC(=O)[C@H](C)NC(=O)[C@H](CC(C)C)NC(=O)[C@H](CCCCN)NC(=O)[C@H](CCC(N)=O)NC(=O)[C@@H](N)CCCCN)C(N)=O,,K12,24 h,3 µM
CC(C)Oc1c(NC(=O)c2ccc(NC(=O)[C@H](CC(N)=O)NC(=O)c3ccc(/N=N/c4ccccc4)cc3)cc2)ccc(C(=O)N/N=C/c2ccc(C(=O)O)cc2)c1O,,BW25113,after 1 h irradiation at 365 nm,0.28 µg/mL
CC[C@H](C)[C@H](NC(=O)[C@@H](NC(=O)[C@H](CCCCN)NC(=O)[C@H](CCCCN)NC(=O)[C@@H](NC(=O)[C@H](Cc1c[nH]c2ccccc12)NC(=O)[C@H](CCCCN)NC(=O)[C@H](Cc1c[nH]c2ccccc12)NC(=O)[C@H](CC(C)C)NC(=O)[C@H](CCCCN)NC(=O)[C@H](CCCCN)NC(=O)[C@@H](N)C(C)C)[C@@H](C)CC)C(C)C)C(N)=O,,,"24 h, 37 °C, Mueller-Hinton broth, NaCl 150 mM",32 µM
CC[C@H](C)[C@H](NC(=O)[C@@H](CCCNC(=N)N)NC(=O)[C@H](CCCNC(=N)N)NC(=O)[C@@H]1CCCN1C(=O)[C@@H]1CCCN1C(=O)[C@H](CCCNC(=N)N)NC(=O)[C@@H]1CCCN1C(=O)[C@H](CCCNC(=N)N)NC(=O)[C@@H]1CCCN1C(=O)[C@H](CC(C)C)NC(=O)[C@H](Cc1ccc(O)cc1)NC(=O)[C@H](Cc1ccc(O)cc1)NC(=O)[C@@H]1CCCN1C(=O)[C@H](CCCCN)NC(=O)[C@H](CC(=O)O)NC(=O)[C@@H](N)C(C)C)C(=O)N[C@@H](Cc1ccc(O)cc1)C(=O)N[C@@H](CC(N)=O)C(=O)N[C@H](CCCNC(=N)N)C(N)=O,broth microdilution,MC4100,"18 h, 37 °C, 25% MHB2",16 µg/mL
CC[C@H](C)[C@H](NC(=O)[C@H](CCCCN)NC(=O)[C@H](CCC(N)=O)NC(=O)[C@H](C)NC(=O)[C@H](Cc1ccc(O)cc1)NC(=O)[C@H](CCC(=O)O)NC(=O)[C@H](CCCCN)NC(=O)[C@H](C)NC(=O)[C@H](CC(C)C)NC(=O)[C@H](CCCNC(=N)N)NC(=O)[C@H](CC(C)C)NC(=O)CNC(=O)[C@H](CCCCN)NC(=O)[C@H](C)NC(=O)[C@H](CCCNC(=N)N)NC(=O)[C@H](CC(C)C)NC(=O)[C@H](CCCCN)NC(=O)[C@H](CCC(N)=O)NC(=O)[C@H](C)NC(=O)[C@H](CC(C)C)NC(=O)[C@H](CCCCN)NC(=O)[C@H](CO)NC(=O)[C@H](CCCCN)NC(=O)[C@@H](N)Cc1c[nH]c2ccccc12)C(=O)N[C@@H](CC(C)C)C(=O)N[C@@H](CC(N)=O)C(=O)O,broth microdilution,"K88, Mueller-Hinton broth",37 °C,4.39 µg/mL

# Some of these lines once more:
Compound,test,test system,conditions,MIC
CC(C)C[C@@H]1NC(=O)[C@H](CCCCN)NC(=O)CNC(=O)[C@H]2CCCN2C(=O)[C@H](CCCCN)NC(=O)[C@H](CC(C)C)NC(=O)[C@H](CCCCN)NC(=O)C2CCC=CCCCC(NC(=O)[C@H](CCCCN)NC1=O)C(=O)N[C@@H](CCCCN)C(=O)NC(C(N)=O)CCCC=CCCC(N)C(=O)N[C@@H](CCCCN)C(=O)N2 (stereo partly drawn),broth microdilution,"ATCC 25922, Mueller-Hinton broth","18 h, 37 °C",64 µM
